Experimental data from different studies.
Protocols differ between the studies behind these lines. ± gives the spread as reported.

Compound	cell line	effect on	method	time	notes	GI50 [nM]
CC/C=C\C/C=C\C/C=C\C/C=C\C/C=C\C/C=C\CCC(=O)Nc1ccn(C2OC(CO)C(O)C2(F)F)c(=O)n1 (stereo not drawn)	HOP-92	cell growth or viability	SRB	–	–	771
C[n+]1cc(NC(=O)c2ccc3ccc4ccc(C(=O)Nc5cc6ccccc6[n+](C)c5)nc4c3n2)cc2ccccc21	T98G multidrug-resistant	–	CellTiter-Glo	96 h	–	2900 ± 200
CCC(=C(c1ccc(Cl)cc1)c1ccc(OCCCN(C)C)cc1)c1ccc(OC)cc1	UACC-257	cell growth or viability	SRB	–	–	7930
CCN1CCN(Cc2ccc(C(=O)Nc3ccc(C)c(NCc4cnc5[nH]ccc5c4OC)c3)cc2C(F)(F)F)CC1	EJ, wild type	cell proliferation	–	48 h	–	4600
O=C1Nc2ccc(F)cc2C1=Cc1c(Cl)[nH]c2c1ccc1ccccc12	NCI-60 cell panel	–	–	48 h	panel mean	470
CC(=C(c1ccc(O)cc1)c1ccc(Cl)cc1)c1ccc(Cl)cc1	SK-MEL-5	cell growth or viability	SRB	–	–	470
COc1cc2c(C=C3C(=O)Nc4ccccc43)c[nH]c2cc1C	NCI-60 cell panel	–	–	48 h	panel mean	130
C[n+]1ccc(/C=N/NC(=O)c2cccc(C(=O)N/N=C/c3cc[n+](C)c4ccccc34)n2)c2ccccc21	T98G multidrug-resistant	–	CellTiter-Glo	96 h	–	17800 ± 200
CC(Cc1ccc(Cl)cc1)=C(c1ccc(Cl)cc1)c1ccc(OCCN(C)C)cc1	UACC-257	cell growth or viability	SRB	–	–	4240
